Published values from different studies.
Each numbered part is a random draw from the data of one study; scales do not carry over between parts. Changes are numbered by the printed parent chain.

Study 1 — method: protein-binding microarray; molecule type: double-stranded DNA, one strand shown; matrix: in vitro; tested at: 940 nM top; notes: 60-bp whole probe; with: salmon DNA 0.4 mg/ml; baseline: random background probes; direction: higher = stronger binding; endpoint: fitted relative affinity; shared flanks, not repeated: GCCTAGCAC … GTCTTGATTCGCTTGACGCTGCTG
Target: Interferon regulatory factor 5, full length, phosphomimetic (IRF5, Homo sapiens, UniProt Q13568-2, residues 1-514, S451D/S453D/S456D/S462D)
TTAGATATCGGGTCTCGATTAGTGCTA: 0.991 z-score
GACGATTTTGGGACTGGAGACGTGCTA: -0.213 z-score
GACGGTATCATACTGCTGACGTGCTAG: 1.21 z-score
TCACTCTTCTTGCATCTGACTGTGCTA: 1.32 z-score
TTAGGTATCGACTTTCGGTTAGTGCTA: 5.9 z-score
TCAGTTTTAGGTCCCTTACTGTGCTAG: 0.0487 z-score
GACGATAACGGGTATCGAGACGTGCTA: 0.769 z-score
ATTGTTTCCTCTTTCACTGCGTGCTAG: 2.22 z-score
AGTGTTTGCCCTATTTAAGAGTGCTAG: 0.357 z-score
TTTGCTTTCTTTATGCACTCGTGCTAG: 1.3 z-score
CATCCAGCAGAGAGCCTCAGGTGCTAG: -0.336 z-score
GACGGACTGGGGTATCCGGACGTGCTA: -0.135 z-score
GACGAACTGAGTATCAAGACGTGCTAG: -0.235 z-score
TTAGATCTCAGTCTCGATCAGTGCTAG: 2.81 z-score
TTTCTCTGCTCTTTTCAACAAGTGCTA: 4.03 z-score
TCAGTTTGCCCTATTTAACTGTGCTAG: 0.272 z-score
TTAGGTCTCGGACTGGGTGAGTGCTAG: 0.834 z-score
TTTGGTTTCGGTTCCGGTTAGTGCTAG: 19.3 z-score
TACGGTCTCGGTTTCGGGACGTGCTAG: 5.9 z-score
TTAGATATCAGTATAGATTAGTGCTAG: -0.113 z-score
TTGTGTTGCTGTTTGAGGAAGTGCTAG: -0.0797 z-score
GTCCTCCTCTCTCTTTCCACGTGCTAG: 1.7 z-score
TTAGATATAAGTATCGATTAGTGCTAG: 3.63 z-score
TTATGACTGCTTTTCCTTTAGTGCTAG: 0.678 z-score
TTAGAACTGAGTCTGGATTAGTGCTAG: -0.838 z-score

Study 2 — target: CCNE1, cyclin fold, Cln2 fusion (human); method: yeast growth competition, sequencing; matrix: yeast; notes: weak parent motif; baseline: not given; direction: higher = stronger binding; endpoint: normalised enrichment score
Starting sequence: FOXM1 docking peptide (human); PHLARPIKVESPP
PHLARPAKVESPP [I7A]: -0.327
PHLARPIKVASPP [E10A]: -0.105
PHLAAPIKVESPP [R5A]: -0.228
PHLARAIKVESPP [P6A]: -0.223
PHLARPIAVESPP [K8A]: -0.00798
PHLARPIKVESAP [P12A]: -0.564

Study 3 — method: universal PBM; molecule type: double-stranded DNA, one strand shown; matrix: in vitro; tested at: 600 nM; direction: higher = stronger binding; endpoint: E-score
Target: Sal-like protein 4, full length isoform A (SALL4, Homo sapiens, UniProt Q9UJQ4, residues 1-1053)
Chain of UniProt Q9UJQ4 (whole entry, looked up): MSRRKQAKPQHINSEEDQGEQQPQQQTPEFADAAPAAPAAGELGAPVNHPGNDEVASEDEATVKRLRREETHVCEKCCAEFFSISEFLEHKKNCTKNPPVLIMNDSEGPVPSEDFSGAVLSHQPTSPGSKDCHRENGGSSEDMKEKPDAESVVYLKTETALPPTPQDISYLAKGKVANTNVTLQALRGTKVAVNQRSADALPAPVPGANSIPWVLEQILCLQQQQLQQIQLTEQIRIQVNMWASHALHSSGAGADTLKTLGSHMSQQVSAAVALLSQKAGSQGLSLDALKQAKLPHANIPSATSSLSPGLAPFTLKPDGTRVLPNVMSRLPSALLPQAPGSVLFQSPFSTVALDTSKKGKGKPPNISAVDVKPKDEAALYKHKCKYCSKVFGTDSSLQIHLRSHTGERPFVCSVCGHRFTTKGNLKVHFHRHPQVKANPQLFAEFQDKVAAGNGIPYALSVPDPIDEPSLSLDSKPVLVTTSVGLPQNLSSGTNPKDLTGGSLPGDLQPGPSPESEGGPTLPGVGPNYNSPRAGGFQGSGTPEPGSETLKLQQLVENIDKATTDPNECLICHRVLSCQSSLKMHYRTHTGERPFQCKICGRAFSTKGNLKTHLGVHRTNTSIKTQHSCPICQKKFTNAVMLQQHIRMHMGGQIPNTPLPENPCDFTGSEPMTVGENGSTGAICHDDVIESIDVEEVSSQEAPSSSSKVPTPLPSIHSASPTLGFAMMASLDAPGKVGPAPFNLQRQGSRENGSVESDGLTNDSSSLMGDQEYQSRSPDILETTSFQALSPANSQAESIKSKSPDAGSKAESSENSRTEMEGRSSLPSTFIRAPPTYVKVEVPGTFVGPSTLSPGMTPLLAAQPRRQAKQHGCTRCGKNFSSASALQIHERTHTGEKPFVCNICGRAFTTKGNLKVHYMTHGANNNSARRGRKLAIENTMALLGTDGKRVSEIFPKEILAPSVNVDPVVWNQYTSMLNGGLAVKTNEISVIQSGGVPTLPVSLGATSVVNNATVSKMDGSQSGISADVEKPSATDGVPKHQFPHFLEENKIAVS
Notes: 8-mer, flanks averaged, mean of replicates
AAAGTCTC: 0.0683
CATAGCAC: 0.165
AGATGTAC: 0.0659
CTGTCCTC: -0.215
AGATCCGC: -0.198
ACATGCTG: -0.103
CGCCATAA: 0.127
ATCGGAAC: -0.105
CTGATGAA: 0.116
GAAACTGC: -0.171
ACTGAGTG: -0.0575
CACCTTAA: 0.125
AGACGCGG: -0.134
GGAAGGCA: -0.179
AAGTGCGC: -0.195
GTATACCA: 0.0572
CAAGCACC: -0.183
CCATGAAA: 0.2
ATCACGCA: -0.033
AGATTACA: 0.178
TATCAGAA: 0.156
GGAGTGCA: -0.128
ACACTACT: 0.0709
TATGAACA: 0.328
ACTGCGTA: -0.231

Study 4 — method: RNAcompete; molecule type: RNA; matrix: in vitro; tested at: 20 nM; notes: 7-mer, probes averaged, single round; baseline: mean of 7-mers; direction: higher = stronger binding; endpoint: 7-mer Z-score
Target: PABPC1L2, full length, GST fusion (mouse, UniProt A0ABA7IW68)
Residues (chain): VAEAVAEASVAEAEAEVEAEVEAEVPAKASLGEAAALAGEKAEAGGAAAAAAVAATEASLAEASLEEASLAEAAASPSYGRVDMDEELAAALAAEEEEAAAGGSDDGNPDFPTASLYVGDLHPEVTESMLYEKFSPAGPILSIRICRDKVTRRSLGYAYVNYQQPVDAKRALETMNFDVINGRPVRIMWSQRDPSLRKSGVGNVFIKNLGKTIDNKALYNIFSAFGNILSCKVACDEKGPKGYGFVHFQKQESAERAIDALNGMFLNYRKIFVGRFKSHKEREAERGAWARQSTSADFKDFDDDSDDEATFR
ACGCCCU: -0.253
AAGGUCC: -0.0681
GGUAUCU: -0.0718
UGGUAGA: 0.00436
CUCAGAU: -0.0645
GGUAUUU: -0.271
CAUGGUC: -0.217
CCCACAU: -0.443
GAAUUAA: 0.0805
GUGCCUU: -0.222
AACUUCC: -0.166
UGUGCUU: -0.168
CGUCCUU: -0.461
AACGAAC: 0.273
GCGCGUA: -0.228
GGCGCCU: -0.336
CUGAGUC: -0.311
CAGCUUC: -0.277
UCCCCAA: -0.237
CAAUCCA: -0.159
ACUACGG: -0.0536
AGCCGGA: -0.0355
CGGCGAA: 0.305
CCCCGCA: -0.454
AGUAAAG: 0.55

Study 5 — method: RNA Bind-n-Seq; molecule type: RNA; matrix: in vitro; tested at: 365 nM; baseline: no-protein control; direction: higher = stronger binding; endpoint: RBNS enrichment (R)
Target: RNA binding protein fox-1 homolog 2, RRM domain, GST-SBP tag (RBFOX2, Homo sapiens, UniProt O43251-10, residues 100-194)
Notes: natural RNA segment, single round, ends assumed
Shared flanks, not repeated: GGGAGUUCUACAGUCCGACGAUC … UGGAAUUCUCGGGUGCCAA
Target sequence (chain): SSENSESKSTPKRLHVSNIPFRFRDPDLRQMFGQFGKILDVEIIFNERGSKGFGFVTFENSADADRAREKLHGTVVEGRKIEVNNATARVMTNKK
ACCUGAGGUCAAGAGUUCGAGACCAGCCUGACCAACUUGGAGAAAUGCCAUCUCAACUGAAAAUACAAAAUUAGCUGGGUGUGGUGGUGCAUGCCUGUAAUCCCAGGUAC: 1.93
AGAACUCCCUGUCUGAAAAGGAUGCCGAGCCUUGUGCUCAGCAGAGGGAAGUUUGGCUAAUGGGCUGAUCGAAUGAGCUAACAUGGGCUGGGGCAGGCAACUACCCGUCC: 0.541
CUGAAUGGUUUGUGAACUUGCUCACCUGGACCACUGUAUCCUGCCACUGUCCUUCCUGGUCUCGCACUGCCACUGCAUGGCCUCCUGUCACUGUGAAUCGUGGCCCAGUC: 2.14
AACCCUUCCAAUACAAGAAUAAGUGGACUAGACUUCCAGUGAUCCCUCUCCCAGCUCUUCCCUUUCCCAGUUGUCCCCACUGUAACUCAAAAGGAUGGAAUACCAAGGUC: 0.444
UUAGAAGCCAGAGCUCUCCUCCAGGCUCCUUCCCAGUGCCUAGAGGUGCUAUAGGAAACAUAGAUCCAGCCAGGGGCUUCCCUAAAGCAGUGCAGCACCGGCCCAGGGCA: 0.751
AUAACCCCUGGGUCCAUCUGGCCAUCAGCCUCAGCAGUGAGCAAAGCAAUACCAUACUCAUUUCUAUGUUCCUGUUCCUUCCUCUGCUCCUCCUUUGGAGAAGCAAUAAU: 0.262
AUGGAAAUUGGAGCCAUCUUUUAUCCCAGAAGCCUUUGCUGCUGCCAGGGCAAGUGGGCUGGUGUGGACUCUUGUUUAGGAGGCUGAGGUUCUUGUCACUCCUUAGCCAG: 0.283
AAUGCAAGAUGACUCAGAGUAUAGGUCAGGGUCAGCACUGGAUAAGGUCAUGAGGGCAGUCUCCCAGACUGCAGGCCUGAGUAAGUGUUGAGUUUUGCAUAAACACAAAC: 0.326
GUCUCCGAAUCUGAGAAUUCGAAAGAAAGCUAUGCUCAGUCUCUGUACAUGCUGAACUCCAAAUUCUUCCAUAUCAACUUCAAGCCCCAAGCCUCCAAUGUAUUACCUAC: 3.72
GGGUAACUUGCCACCACCCUGGAUCCAAGUUCCCAUGGAGGGGAAAAUUAGGACAUUUAGUAGUGAGGCACUGGUACCUUCUCCCUGCUCCUGUUAUAGAGGAGGCUACG: 0.468
GUUCAAACUCUAUCUACCAGUUCAGAACAAGGCCAAGCAAUAACUGGAUAGCAGCUAAGGGGACAGACUCUGGAUGUGAGUCUUAGUUUAAAAAGGAAACUACAUGGAGA: 0.739
GGCUUAAGUGUGCAGCUACCCACAAGCCUAGCCCCGAGGGGUGGGUGGAGCAACAGCUUUAGAGUGACUCAACUCCUAUCACCAGGAGAAACAAUUCUGAAAACUGGUCC: 0.317

Study 6 — method: RNA Bind-n-Seq; molecule type: RNA; matrix: in vitro; tested at: 20 nM; notes: 6-mer, flanks averaged, single round; with: 150 mM KCl; baseline: input library; direction: higher = stronger binding; endpoint: 6-mer enrichment (R)
Target: TAR DNA-binding protein 43, full length, His tag (TARDBP, Homo sapiens, UniProt Q13148, residues 1-414)
AUCGGA: 0.803
ACGUCU: 0.596
UAGACC: 0.64
UAUCUC: 0.535
AGUUGA: 0.768
UUCGUG: 0.765
CUCUCA: 0.553
AAUCUC: 0.552
CGCCCG: 0.748
CUGUCG: 0.785
CGGACA: 0.958
UCUUAU: 0.574
CAGACA: 0.692
AGUAAU: 0.634
GAUUGG: 1.45
AUCGAA: 0.634
CGCCCA: 0.676
UAGAUA: 0.634

Study 7 — method: protein binding microarray; molecule type: double-stranded DNA, one strand shown; matrix: in vitro; tested at: not given; baseline: not given; direction: higher = stronger binding; endpoint: E-score
Target: Histone acetyltransferase KAT6A, winged helix 1, GST fusion (KAT6A, Homo sapiens, UniProt Q92794, residues 1-85)
Notes: 8-mer, flanks averaged, mean of 2 arrays, mostly near background
Construct (chain): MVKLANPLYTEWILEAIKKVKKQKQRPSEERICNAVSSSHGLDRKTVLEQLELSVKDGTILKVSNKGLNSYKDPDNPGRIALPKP
ATTGCCGC: 0.327
CTCGACAC: 0.045
CACGCAAG: -0.0351
AGCCAGGC: -0.0981
CCGAAGCA: -0.0391
AATATTGC: -0.0874
AGGAGCAT: -0.174
AGACTGAC: -0.0657
ACGTTGAA: -0.0582
CTGCACCA: -0.194
CCCTTGAC: 0.0429
ACATCCAT: -0.0813
ACTCGTAG: -0.0923
CGTGGTCA: -0.185
CATAGTAC: 0.00458
CCATTGTC: -0.14
AGAGCGTG: 0.268
ACTACTTG: -0.0875
AACTGTCC: -0.179
AAATACCC: 0.0408
GCCCTATA: -0.0115
ATATATAT: -0.0565
CCGTAAAA: 0.219
AACTGAGG: -0.121
ACTACCAT: -0.241

Some of these lines once more (study 6):
AUCGGA: 0.803
ACGUCU: 0.596
UAGACC: 0.64
UAUCUC: 0.535
AGUUGA: 0.768
UUCGUG: 0.765
CUCUCA: 0.553
AAUCUC: 0.552
CGCCCG: 0.748
CUGUCG: 0.785
CGGACA: 0.958
UCUUAU: 0.574
CAGACA: 0.692
AGUAAU: 0.634
GAUUGG: 1.45
AUCGAA: 0.634
CGCCCA: 0.676
UAGAUA: 0.634
